Published values of several laboratories.
Every numbered part comes from another study and shows a few of its results, in no order. Values joined by “and” are separate records of one study, mostly repeats; a detail may differ.
Chain of UniProt O95747 (whole entry, looked up): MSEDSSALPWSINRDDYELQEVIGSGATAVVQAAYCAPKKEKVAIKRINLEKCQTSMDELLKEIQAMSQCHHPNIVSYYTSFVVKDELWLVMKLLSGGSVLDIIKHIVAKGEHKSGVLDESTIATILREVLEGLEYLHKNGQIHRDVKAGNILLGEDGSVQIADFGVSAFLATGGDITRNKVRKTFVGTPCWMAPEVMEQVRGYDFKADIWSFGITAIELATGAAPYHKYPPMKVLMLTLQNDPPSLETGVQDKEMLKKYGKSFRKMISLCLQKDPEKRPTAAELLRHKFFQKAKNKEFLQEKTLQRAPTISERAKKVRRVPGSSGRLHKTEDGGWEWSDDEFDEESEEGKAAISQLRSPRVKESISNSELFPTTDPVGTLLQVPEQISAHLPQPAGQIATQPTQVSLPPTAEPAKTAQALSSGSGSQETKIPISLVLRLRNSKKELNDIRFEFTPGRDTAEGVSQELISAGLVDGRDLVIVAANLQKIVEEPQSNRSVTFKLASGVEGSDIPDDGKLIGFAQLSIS
Chain of UniProt P07948 (whole entry, looked up): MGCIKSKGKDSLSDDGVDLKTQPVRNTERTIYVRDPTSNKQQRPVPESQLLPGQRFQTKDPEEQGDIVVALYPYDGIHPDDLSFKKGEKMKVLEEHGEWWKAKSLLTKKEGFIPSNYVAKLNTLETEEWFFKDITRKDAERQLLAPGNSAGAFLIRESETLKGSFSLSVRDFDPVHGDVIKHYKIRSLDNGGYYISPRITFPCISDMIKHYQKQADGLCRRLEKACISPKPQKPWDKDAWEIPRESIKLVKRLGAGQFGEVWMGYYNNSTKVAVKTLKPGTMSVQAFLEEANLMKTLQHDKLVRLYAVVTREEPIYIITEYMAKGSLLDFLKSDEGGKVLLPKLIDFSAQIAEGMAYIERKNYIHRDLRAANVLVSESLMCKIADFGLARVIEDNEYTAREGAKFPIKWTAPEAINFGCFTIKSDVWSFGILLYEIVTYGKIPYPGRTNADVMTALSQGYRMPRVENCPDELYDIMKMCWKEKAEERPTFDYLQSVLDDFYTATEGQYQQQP
Chain of UniProt Q6XUX3 (whole entry, looked up): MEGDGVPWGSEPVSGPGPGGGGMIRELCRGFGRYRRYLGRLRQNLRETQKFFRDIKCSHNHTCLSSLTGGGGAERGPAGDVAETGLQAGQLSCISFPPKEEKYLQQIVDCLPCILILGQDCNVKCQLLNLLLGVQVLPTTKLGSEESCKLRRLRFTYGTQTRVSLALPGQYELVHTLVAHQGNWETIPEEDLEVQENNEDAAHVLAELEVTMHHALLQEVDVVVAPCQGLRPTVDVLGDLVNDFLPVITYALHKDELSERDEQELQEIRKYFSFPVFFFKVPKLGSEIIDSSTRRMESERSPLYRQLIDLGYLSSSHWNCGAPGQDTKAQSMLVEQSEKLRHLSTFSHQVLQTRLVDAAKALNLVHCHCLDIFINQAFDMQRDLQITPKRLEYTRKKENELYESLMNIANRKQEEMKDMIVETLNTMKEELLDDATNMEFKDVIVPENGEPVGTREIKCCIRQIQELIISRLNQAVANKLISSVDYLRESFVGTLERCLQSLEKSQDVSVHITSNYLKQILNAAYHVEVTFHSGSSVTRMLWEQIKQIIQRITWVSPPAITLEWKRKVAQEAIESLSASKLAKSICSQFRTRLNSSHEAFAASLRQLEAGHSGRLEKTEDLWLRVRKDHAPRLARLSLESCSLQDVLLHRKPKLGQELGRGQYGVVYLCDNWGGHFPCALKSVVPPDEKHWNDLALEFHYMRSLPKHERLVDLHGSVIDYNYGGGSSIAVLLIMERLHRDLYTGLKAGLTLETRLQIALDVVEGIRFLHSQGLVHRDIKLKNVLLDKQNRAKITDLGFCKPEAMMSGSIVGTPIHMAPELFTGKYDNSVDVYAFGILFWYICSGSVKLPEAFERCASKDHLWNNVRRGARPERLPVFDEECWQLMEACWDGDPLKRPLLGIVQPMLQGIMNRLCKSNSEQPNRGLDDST
Chain of UniProt P36897 (whole entry, looked up): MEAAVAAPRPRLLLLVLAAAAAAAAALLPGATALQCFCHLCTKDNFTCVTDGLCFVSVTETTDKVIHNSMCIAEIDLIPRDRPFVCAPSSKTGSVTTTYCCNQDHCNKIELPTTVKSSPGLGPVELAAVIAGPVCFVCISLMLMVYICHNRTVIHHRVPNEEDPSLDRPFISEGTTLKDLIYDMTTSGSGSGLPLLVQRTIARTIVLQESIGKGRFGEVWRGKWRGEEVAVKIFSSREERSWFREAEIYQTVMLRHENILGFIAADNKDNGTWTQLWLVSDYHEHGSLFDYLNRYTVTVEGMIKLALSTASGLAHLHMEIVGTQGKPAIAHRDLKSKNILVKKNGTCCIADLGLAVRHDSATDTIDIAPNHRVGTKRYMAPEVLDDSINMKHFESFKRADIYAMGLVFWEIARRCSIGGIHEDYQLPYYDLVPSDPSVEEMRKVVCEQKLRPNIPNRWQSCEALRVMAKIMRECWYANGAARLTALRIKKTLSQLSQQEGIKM
Chain of UniProt Q9UIK4 (whole entry, looked up): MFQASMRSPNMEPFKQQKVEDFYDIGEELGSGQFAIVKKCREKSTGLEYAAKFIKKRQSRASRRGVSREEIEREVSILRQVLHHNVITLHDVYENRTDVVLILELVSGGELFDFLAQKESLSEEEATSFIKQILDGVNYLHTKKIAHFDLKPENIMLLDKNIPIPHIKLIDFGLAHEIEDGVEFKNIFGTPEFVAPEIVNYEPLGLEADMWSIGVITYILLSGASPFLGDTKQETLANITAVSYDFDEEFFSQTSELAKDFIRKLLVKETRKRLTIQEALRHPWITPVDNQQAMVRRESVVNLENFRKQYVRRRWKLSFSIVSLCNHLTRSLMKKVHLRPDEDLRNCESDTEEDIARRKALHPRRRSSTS
Chain of UniProt P35626 (whole entry, looked up): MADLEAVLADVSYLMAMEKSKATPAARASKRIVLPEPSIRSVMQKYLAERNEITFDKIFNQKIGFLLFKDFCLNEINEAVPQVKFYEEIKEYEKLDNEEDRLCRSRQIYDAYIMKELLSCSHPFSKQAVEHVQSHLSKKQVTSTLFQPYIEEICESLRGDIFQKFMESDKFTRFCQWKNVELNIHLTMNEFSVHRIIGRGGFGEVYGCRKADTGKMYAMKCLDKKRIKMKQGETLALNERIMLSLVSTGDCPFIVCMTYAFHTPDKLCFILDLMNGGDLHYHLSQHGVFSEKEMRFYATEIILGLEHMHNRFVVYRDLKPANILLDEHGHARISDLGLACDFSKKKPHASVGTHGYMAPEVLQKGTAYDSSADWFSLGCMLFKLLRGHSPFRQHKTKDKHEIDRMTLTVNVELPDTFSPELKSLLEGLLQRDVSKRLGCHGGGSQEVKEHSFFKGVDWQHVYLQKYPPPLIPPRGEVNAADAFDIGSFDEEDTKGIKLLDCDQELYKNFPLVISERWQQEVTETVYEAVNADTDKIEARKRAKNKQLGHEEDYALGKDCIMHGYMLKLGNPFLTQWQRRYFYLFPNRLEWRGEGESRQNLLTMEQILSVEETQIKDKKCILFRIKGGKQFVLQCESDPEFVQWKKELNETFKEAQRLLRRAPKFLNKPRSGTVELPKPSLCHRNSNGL
Chain of UniProt O94804 (whole entry, looked up): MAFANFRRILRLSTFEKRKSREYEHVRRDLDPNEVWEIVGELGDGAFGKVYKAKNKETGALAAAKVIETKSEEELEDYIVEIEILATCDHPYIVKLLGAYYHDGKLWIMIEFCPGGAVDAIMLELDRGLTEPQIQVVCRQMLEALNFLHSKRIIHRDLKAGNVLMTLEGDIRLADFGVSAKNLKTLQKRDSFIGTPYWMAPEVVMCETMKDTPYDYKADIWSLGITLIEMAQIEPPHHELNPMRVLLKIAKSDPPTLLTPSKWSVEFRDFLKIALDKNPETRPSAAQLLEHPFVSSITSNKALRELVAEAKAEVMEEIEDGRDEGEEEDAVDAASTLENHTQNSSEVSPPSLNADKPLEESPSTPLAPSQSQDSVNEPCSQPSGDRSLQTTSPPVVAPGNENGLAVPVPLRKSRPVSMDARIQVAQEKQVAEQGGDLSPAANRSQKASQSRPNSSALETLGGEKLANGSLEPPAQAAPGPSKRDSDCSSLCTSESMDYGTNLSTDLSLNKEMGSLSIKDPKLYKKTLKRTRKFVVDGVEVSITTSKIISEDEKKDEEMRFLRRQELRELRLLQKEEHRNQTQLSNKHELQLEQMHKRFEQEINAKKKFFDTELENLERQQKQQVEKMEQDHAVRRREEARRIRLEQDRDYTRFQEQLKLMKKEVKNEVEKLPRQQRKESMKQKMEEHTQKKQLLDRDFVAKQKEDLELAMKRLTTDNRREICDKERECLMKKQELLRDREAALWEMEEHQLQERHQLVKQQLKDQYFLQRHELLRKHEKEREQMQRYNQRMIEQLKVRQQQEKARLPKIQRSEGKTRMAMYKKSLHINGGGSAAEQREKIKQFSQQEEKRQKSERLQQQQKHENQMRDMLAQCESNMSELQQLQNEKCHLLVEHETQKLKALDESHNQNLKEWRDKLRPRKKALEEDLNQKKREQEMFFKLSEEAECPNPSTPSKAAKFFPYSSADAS
Chain of UniProt O96017 (whole entry, looked up): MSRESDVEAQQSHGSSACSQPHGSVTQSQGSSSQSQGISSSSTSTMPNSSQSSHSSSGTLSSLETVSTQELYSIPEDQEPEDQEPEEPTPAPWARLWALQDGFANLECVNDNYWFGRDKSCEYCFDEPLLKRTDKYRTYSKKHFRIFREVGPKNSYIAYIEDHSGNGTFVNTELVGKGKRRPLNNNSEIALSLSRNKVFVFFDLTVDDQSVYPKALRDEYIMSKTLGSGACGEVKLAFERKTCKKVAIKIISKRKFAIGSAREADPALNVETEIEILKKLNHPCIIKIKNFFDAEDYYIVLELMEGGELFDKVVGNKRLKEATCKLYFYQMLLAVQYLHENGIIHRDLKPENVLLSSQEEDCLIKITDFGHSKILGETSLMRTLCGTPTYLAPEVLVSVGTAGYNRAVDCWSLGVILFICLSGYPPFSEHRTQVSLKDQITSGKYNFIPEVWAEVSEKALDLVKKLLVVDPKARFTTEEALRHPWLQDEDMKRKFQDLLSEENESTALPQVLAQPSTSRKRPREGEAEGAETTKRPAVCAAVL

Sample 1 — effect on: enzyme activity; action: inhibitor; concentration: 0.5 µM; reference: control
SMILES: COc1cc2c(cc1OC)-c1[nH]nc(Nc3cccc(F)c3)c1C2
For cGMP-dependent protein kinase 1, isoform beta (PRKG1, Homo sapiens, UniProt Q13976): remaining activity read 104%.
It gave 101% for remaining activity (TGFBR1 (Homo sapiens, UniProt P36897)).
STK10 (Homo sapiens, UniProt O94804) — remaining activity: 89%.
It gave 103% for remaining activity (CAMK2D (Homo sapiens, UniProt Q13557)).
It gave 93% for remaining activity (NEK2 (Homo sapiens, UniProt P51955)).
For OXSR1 (Homo sapiens, UniProt O95747): remaining activity read 121%.
It gave 103% for remaining activity (MAP3K3 (Homo sapiens, UniProt Q99759)).
It gave 96% for remaining activity (Protein kinase C beta type, isoform beta-I (PRKCB, Homo sapiens, UniProt P05771)).
It gave 100% for remaining activity (TGFBR2 (Homo sapiens, UniProt P37173)).
For PRKACA (Homo sapiens, UniProt P17612): remaining activity read 92.8%.
IKBKB (Homo sapiens, UniProt O14920) — remaining activity: 98.2%.
It gave 86.7% for remaining activity (DAPK2 (Homo sapiens, UniProt Q9UIK4)).
It gave 98.4% for remaining activity (GRK3 (Homo sapiens, UniProt P35626)).
Tyrosine-protein kinase Lyn, isoform B (LYN, Homo sapiens, UniProt P07948) — remaining activity: 77.5%.
CAMKK2 (Homo sapiens, UniProt Q96RR4) — remaining activity: 86.8%.
The remaining activity was 90.7% (DAPK1 (Homo sapiens, UniProt P53355)).
The remaining activity was 105% (STK39 (Homo sapiens, UniProt Q9UEW8)).
It gave 96.5% for remaining activity (CHEK2 (Homo sapiens, UniProt O96017)).
Cyclin-dependent kinase 5, with p25 (CDK5, Homo sapiens, UniProt Q00535) — remaining activity: 89%.
The remaining activity was 93.3% (IKBKE (Homo sapiens, UniProt Q14164)).
MAPK9 (Homo sapiens, UniProt P45984) — remaining activity: 75.9%.
PRKCA (Homo sapiens, UniProt P17252) — remaining activity: 99.2%.

Sample 2 — method: competition with immobilised ligand; concentration: 1 µM
SMILES: O=C(O)[C@H]1[C@H](Cn2nnc3ccccc3c2=O)CC[C@@H]1C(=O)c1ccc(OCCC2CCOCC2)cc1
Myosin-IIIb (MYO3B, Homo sapiens, UniProt Q8WXR4); binding — remaining binding: 69%.
ALK (Homo sapiens, UniProt Q9UM73, L1196M); cell-free assay — remaining binding: 81%.
For DSTYK (Homo sapiens, UniProt Q6XUX3); cell-free assay: remaining binding read 100%.
For MAP3K19 (Homo sapiens, UniProt Q56UN5); cell-free assay: remaining binding read 78%.
It gave 89% for remaining binding (PTK2 (Homo sapiens, UniProt Q05397); cell-free assay).
The remaining binding was 77% (OXSR1 (Homo sapiens, UniProt O95747); cell-free assay).

Sample 3 — cell line: mouse MPNST tumor cells; method: high-content nuclear imaging; measured: cell number; concentration: 10 µM; time: 12 h; setting: mean of 2 replicates; reference: plate mean; reading: higher = more cells
C#Cc1cccc(Nc2ncnc3cc(OCCOC)c(OCCOC)cc23)c1 has a nuclei count of 2.43 z-score.
COc1ccc(CN2CCN(C(c3ccc(F)cc3)c3ccc(F)cc3)CC2)c(OC)c1OC has a nuclei count of -0.54 z-score.
CC(C)(C)c1ccc(S(=O)(=O)/C=C/C#N)cc1 gave a nuclei count of -5.58 z-score.
Cc1ccccc1COc1ccc(C2C3=C(CC(C)(C)CC3=O)OC3=C2C(=O)CC(C)(C)C3)cc1 has a nuclei count of 2.29 z-score.
With Oc1ncnc2[nH]ncc12 the nuclei count was 2.23 z-score and 1.22 z-score.
With O=C(C1CC1)N1CC[C@@H](Cc2n[nH]c(=O)n2-c2ccc(-c3ccc4occc4c3)cc2)C1 the nuclei count was 1.56 z-score.
C#CCN(C)CC1=Cc2ccccc2Oc2ccccc21 gave a nuclei count of -0.552 z-score.
For CCOC(=O)[N-]c1c[n+](N2CCOCC2)no1, the nuclei count was 0.166 z-score.

Sample 4 — cell line: HaCaT; concentration: 100 µM; time: 36 h
CC(C)N(CCCCOCC(=O)NS(C)(=O)=O)c1cnc(-c2ccccc2)c(-c2ccccc2)n1 gave a viability of 21.6%.
CC1(C)CCC(C)(C)c2cc(NC(=O)c3ccc(C(=O)O)cc3)ccc21 gave a viability of 66.9%.
Cc1ccnc2c1NC(=O)c1cccnc1N2C1CC1 gave a viability of 91%.
NS(=O)(=O)c1cc2c(cc1Cl)NC(C(Cl)Cl)NS2(=O)=O (stereo not shown) has a viability of 98.4%.
CCCC(=O)Nc1ccc(OCC(O)CNC(C)C)c(C(C)=O)c1 (stereo not shown) has a viability of 87.6%.
The viability of Nc1nc(=O)n([C@@H]2CS[C@H](CO)O2)cc1F is reported as 97.3%.
For CC(C(=O)O)c1ccc2c(c1)Cc1cccnc1O2 (stereo not shown), the viability was 80.7%.

Sample 5 — method: phase 2a trial; host: idiopathic pulmonary fibrosis patients
SMILES: CC(C)n1cnc(-c2ccc(F)cc2)c1-c1ncc(C(=O)Nc2ccc(N3CCN(C)CC3)cc2)[nH]1
It gave 0% for “patients with leukocytosis” (60 mg once daily, grade 2 emergent event).
The “patients with leukocytosis” was 0% (30 mg once daily, grade 5 emergent event).
The “patients with leukocytosis” was 0% (30 mg once daily, grade 3 emergent event).
For 30 mg once daily, grade 2 emergent event: “patients with leukocytosis” read 0%.
all arms, grade 3 emergent event — “patients with leukocytosis”: 0%.
For 60 mg once daily, grade 5 emergent event: “patients with leukocytosis” read 0%.

Excerpt of the above (sample 1):
Cyclin-dependent kinase 5, with p25 (CDK5, Homo sapiens, UniProt Q00535) — remaining activity: 89%.
The remaining activity was 93.3% (IKBKE (Homo sapiens, UniProt Q14164)).
PRKCA (Homo sapiens, UniProt P17252) — remaining activity: 99.2%.
MAPK9 (Homo sapiens, UniProt P45984) — remaining activity: 75.9%.
It gave 93% for remaining activity (NEK2 (Homo sapiens, UniProt P51955)).
